Measured values gathered from unrelated publications.
Compare with care: the assays were run in different laboratories. “And” joins repeats or separate records; there may be more than shown. ± gives the spread as reported.

Under “tumour growth inhibition”, `COc1c(Cl)cccc1Nc1c(-c2ccncc2C#C[C@@]2(C)CCCN2C(=O)/C=C/CN(C)C)[nH]c2c1C(=O)NCC2` is recorded as 126% (male NSG mouse, PDX; 50 mg/kg once daily, 42 days, EGFR SVD).
`CC(C)[C@H](NC(=O)[C@H](Cc1ccccc1)NC(=O)[C@H](Cc1ccccc1)NC(=O)OCC1c2ccccc2-c2ccccc21)C(=O)N[C@@H](CCC(=O)O)C(=O)N[C@@H](CCC(=O)O)C(N)=O`: “time to lung targeting” at most 5 min (measured: Cy5.5-labelled peptide; mouse, lung; intravenous).
`COC1CN([C@H]2CC[C@H]([C@@]3(C)Oc4c(Cl)cc(C(=O)NCc5c(SC)cc(C)[nH]c5=O)c(C)c4O3)CC2)C1`: “log2 fold change” 1.66 (RNA-seq, measured: NDRG2; human, whole blood; dose not given, 24 h; relative to: pretreatment baseline).
The spleen weight of `CC(C)(C)NCC(SS(=O)(=O)O)c1ccccc1` (stereo not drawn) is reported as 0.26 g (Swiss Webster mice, Schistosoma mansoni-infected; 600 mg/kg single dose on day 15 post-infection, perfusion day 44 post-infection).
With `COc1cnc2cccc(N3CCc4c(cc(Cn5ccnc5)cc4-c4cn(C)nc4C(F)(F)F)C3=O)c2c1` the tumour volume was 134 mm3 and 150 mm3 and 151 mm3 and 128 mm3 and 154 mm3 (BALB/c nude mice, MV4-11 xenograft; intraperitoneal, 75 mg/kg, day 17).
`CCC(CC)n1c(Cc2cccs2)nc2cc(C(=O)NC(CC(=O)O)CC(C)C)ccc21` (stereo not drawn) — result for blood pressure: “decreased” (measured: systolic, diastolic pressure; mouse; dose not given, 2 wk).
`CN1CCC[C@]1(C)/C=C/S(=O)(=O)NC(=O)Nc1c2c(cc3c1CCC3)CCC2` has an IL-1β inhibition of 99.3% (human, whole blood ex vivo; 50 mg twice daily, day 1, 6 h, multiple ascending dose, with: LPS and ATP).
`CCCCCc1ccc(S(=O)(=O)N2CC2C(=O)OC)cc1` (stereo not drawn): “tumour growth inhibition” 54% (mouse, Lewis lung carcinoma; intraperitoneal, 15 mg/kg, 16 doses, day 11).
`COc1cc(O)ccc1CCC(c1ccc(O)cc1)c1cc2c(c(C)c1O)OC(c1ccc(O)cc1)CC2` (mixture of isomers) has an EPA level of 68000 ± 12100 pg/mL (human blood; 1 µM, with: A23187).
For `CC(CCC(=O)NCc1ccc(C(=O)NO)cc1)C1CCC2C3C(O)CC4CC(O)CCC4(C)C3CCC12C` (stereo not drawn), the relative abundance was 54.6% (measured: TCA; PCK rat (Pkhd1 mutant), bile; oral gavage, dose not given, 5 months; relative to: total bile acids).
`CC(C)C[C@H](NC(=O)CNC(=O)[C@H](CCC(N)=O)NC(=O)[C@H](CC(C)C)NC(=O)[C@H](CC(C)C)NC(=O)[C@H](CCCNC(=N)N)NC(=O)[C@H](CCC(N)=O)NC(=O)[C@H](CC(C)C)NC(=O)[C@H](CCCNC(=N)N)NC(=O)[C@H](C)NC(=O)CNC(=O)[C@H](CCC(=O)O)NC(=O)[C@H](CCCNC(=N)N)NC(=O)[C@H](CC(C)C)NC(=O)[C@H](CCCNC(=N)N)NC(=O)[C@H](CO)NC(=O)[C@H](CC(C)C)NC(=O)[C@H](CCC(=O)O)NC(=O)[C@H](CO)NC(=O)[C@@H](NC(=O)[C@H](Cc1ccccc1)NC(=O)[C@@H](NC(=O)CNC(=O)[C@H](CC(=O)O)NC(=O)C(C)(C)NC(=O)[C@@H](N)Cc1c[nH]cn1)[C@@H](C)O)[C@@H](C)O)C(=O)N[C@@H](CC(C)C)C(=O)N[C@@H](CCC(N)=O)C(=O)NCC(=O)N[C@@H](CC(C)C)C(=O)N[C@H](C(=O)NCC(=O)N[C@@H](CCCCNC(=O)COCCOCCNC(=O)COCCOCCNC(=O)CC[C@H](NC(=O)CCCCCCCCCCCCCCCCC(=O)O)C(=O)O)C(N)=O)C(C)C` — result for plasma glycerol: “no effect” (DIO C57BL/6J mice; sc, 300 nmol/kg twice daily, end of 8 days).
For `O=C(NS(=O)(=O)c1cccs1)c1cc2ccccc2n1Cc1ccc(Br)c2ccccc12`, “blood urea nitrogen” read 11.7 mM and 10.7 mM and 10 mM and 9.64 mM and 8.36 mM and 14.5 mM (mouse, chronic hyperuricaemia model, serum; dose not given).
For `CC(=O)[O-].O.O.[O-]c1ccc(Br)cc1C=NCCN1CCOCC1.[Zn+2]`, the inhibition was 16.1% (hydroxyl radical scavenging; 80 µM).
`COc1cccc(OCCN2CCC[C@H](CN3CCc4cc(OC)c(OC)cc4CC3=O)C2)c1` — result for “time in centre, open field”: “no effect” (C57BL/6J mouse, male, stress-naive; intraperitoneal, 5 mg/kg, 14 d post-dose; relative to: before dosing).
The lymphoma-free mice of `CC(=O)N1c2ccc(-c3ccc(CNC(=O)c4cn5cc(-c6cnc(N)nc6)nc(N6CCOCC6)c5n4)cc3)cc2CC[C@@H]1C` is reported as 90% (Eµ-Myc lymphoma cells, mouse, Eµ-Myc lymphoma transplant; 45 mg/kg/day, beyond day 100).
With `COc1ccc(C(=O)CCc2cc(C(CCc3ccc(O)cc3OC)c3ccc(O)cc3)c(O)cc2OC)cc1` (racemic) the EPA level was 63000 ± 14200 pg/mL (human blood; 0.3 µM, with: A23187).
For `O=S(=O)(NCc1ccncc1)c1ccc(C2CCCCC2)cc1`, “intact GFP+ granule cells” read about 1.4 fold (immunohistochemistry; CK-p25 mice female, hippocampal granule layer; ip, 0.3 mg/kg daily, 6 wk; relative to: vehicle).
For `C[C@H](NC(=O)COC(=O)[C@H](C)NC(=O)CO)C(=O)O`, “backbone scission rate constant” read 0.0013 h⁻¹ (water; pH 2, 37 °C).
`N=C(N)NCCC[C@@H]1NC(=O)[C@H](CCCNC(=N)N)NC(=O)[C@@H](C(c2ccccc2)c2ccccc2)NC(=O)[C@H](Cc2c[nH]c3ccccc23)NC(=O)[C@@H](C(c2ccccc2)c2ccccc2)NC(=O)[C@@H](CCCNC(=N)N)NC(=O)[C@@H](CCCNC(=N)N)NC1=O` gave a calcein leakage of 38% (bacterial membrane liposomes; 5 µg/mL, 50 min).
For `CN(CCNCc1cc(C(=O)[O-])ccc1[O-])CCNCc1cc(C(=O)[O-])ccc1[O-].[Cl-].[Fe+3].[K+].[K+]`, the r1 relaxivity was 1.5 ± 0.1 mM⁻¹ s⁻¹ (human serum albumin 35 mg/mL; pH 7.4, 33 °C, 1.4 T).
`COc1ccc2cc3[n+](cc2c1OCCCOC(=O)c1cscn1)CCc1cc2c(cc1-3)OCO2`: “plasma total cholesterol reduction” 29.5% (C57BL/6 mice, high-fat diet; oral gavage, 10 mg/kg daily, 14 weeks; relative to: HFD control).
With `O=C([O-])c1cccc(CN2Cc3cccc(n3)CN(Cc3cccc(C(=O)O)n3)Cc3cccc(n3)C2)n1.[Mn+2].[O-][Cl+3]([O-])([O-])[O-]` the r1 relaxivity was 3.6 mM⁻¹ s⁻¹ (HEPES buffer with NaCl; 33 °C, 1.4 T).
`COc1cc2c(NC3CCN(C(C)C)CC3)cc(N3CCOCC3)nc2cc1OCCCN1CCCC1`: “log2 fold change” 0.0478 (TMT proteomics, measured: PGAM1; 5xFAD mice, hippocampus; dose not given; relative to: untreated 5xFAD mice).
The total cholesterol of `CCCCCCCCCCCCCCCC(=O)NCCCC[C@H](N)C(=O)N[C@@H](CC(=O)O)C(=O)N[C@H](C(=O)N[C@@H](Cc1c[nH]cn1)C(=O)N[C@@H](Cc1ccccc1)C(=O)N[C@@H](CCCNC(=N)N)C(=O)N[C@H](C(=O)N[C@@H](Cc1ccccc1)C(=O)N[C@@H](CCCNC(=N)N)C(=O)N[C@@H](CO)C(=O)N[C@@H](Cc1c[nH]cn1)C(=O)N[C@@H](CO)C(=O)N[C@@H](CC(=O)O)C(=O)N[C@@H](Cc1ccc(O)cc1)C(=O)N[C@@H](CCCNC(=N)N)C(=O)N[C@@H](CCCNC(=N)N)C(=O)N[C@H](C(=O)O)[C@@H](C)CC)[C@@H](C)O)[C@@H](C)O` is reported as 57.2 ± 9.9 mg/dL (C57BL/6J mice, MCD diet-fed, serum; dose not given, 3 weeks, NASH model).

Excerpt of the above:
`COc1cc2c(NC3CCN(C(C)C)CC3)cc(N3CCOCC3)nc2cc1OCCCN1CCCC1`: “log2 fold change” 0.0478 (TMT proteomics, measured: PGAM1; 5xFAD mice, hippocampus; dose not given; relative to: untreated 5xFAD mice).
